Measurements pooled from the literature.
A part holds a random share of what one study measured. Several values in a cell are separate wells, animals, samples, runs or records.
Chain of UniProt P42336 (whole entry, unmodified, looked up): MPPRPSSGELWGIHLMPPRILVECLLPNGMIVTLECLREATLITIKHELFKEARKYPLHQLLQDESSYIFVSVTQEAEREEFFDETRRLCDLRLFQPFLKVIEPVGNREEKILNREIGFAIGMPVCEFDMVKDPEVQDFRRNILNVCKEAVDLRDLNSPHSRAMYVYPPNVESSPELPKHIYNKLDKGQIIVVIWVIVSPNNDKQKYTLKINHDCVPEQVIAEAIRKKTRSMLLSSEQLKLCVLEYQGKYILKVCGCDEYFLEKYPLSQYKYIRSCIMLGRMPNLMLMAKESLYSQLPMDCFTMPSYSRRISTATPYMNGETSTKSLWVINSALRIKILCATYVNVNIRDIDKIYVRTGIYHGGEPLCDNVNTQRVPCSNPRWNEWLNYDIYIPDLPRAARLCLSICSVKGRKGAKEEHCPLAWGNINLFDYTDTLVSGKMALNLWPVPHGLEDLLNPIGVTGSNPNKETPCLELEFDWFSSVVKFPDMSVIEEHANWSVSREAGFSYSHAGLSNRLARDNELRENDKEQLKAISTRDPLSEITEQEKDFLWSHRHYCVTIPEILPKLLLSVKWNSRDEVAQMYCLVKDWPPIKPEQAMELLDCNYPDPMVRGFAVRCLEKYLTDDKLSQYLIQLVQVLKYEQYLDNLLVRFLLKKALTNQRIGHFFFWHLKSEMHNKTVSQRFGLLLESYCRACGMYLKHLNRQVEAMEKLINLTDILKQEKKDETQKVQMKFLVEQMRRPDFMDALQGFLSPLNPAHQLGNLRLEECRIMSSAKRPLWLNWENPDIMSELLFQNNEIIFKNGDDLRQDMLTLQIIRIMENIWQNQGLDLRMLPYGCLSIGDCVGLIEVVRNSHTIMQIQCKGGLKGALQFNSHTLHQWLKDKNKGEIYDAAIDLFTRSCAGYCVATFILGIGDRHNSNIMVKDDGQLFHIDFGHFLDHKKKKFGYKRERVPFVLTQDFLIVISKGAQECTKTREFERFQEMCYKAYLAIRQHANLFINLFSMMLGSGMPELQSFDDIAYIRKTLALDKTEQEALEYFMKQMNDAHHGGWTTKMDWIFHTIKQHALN
Chain of UniProt Q9Y2K2 (whole entry, looked up): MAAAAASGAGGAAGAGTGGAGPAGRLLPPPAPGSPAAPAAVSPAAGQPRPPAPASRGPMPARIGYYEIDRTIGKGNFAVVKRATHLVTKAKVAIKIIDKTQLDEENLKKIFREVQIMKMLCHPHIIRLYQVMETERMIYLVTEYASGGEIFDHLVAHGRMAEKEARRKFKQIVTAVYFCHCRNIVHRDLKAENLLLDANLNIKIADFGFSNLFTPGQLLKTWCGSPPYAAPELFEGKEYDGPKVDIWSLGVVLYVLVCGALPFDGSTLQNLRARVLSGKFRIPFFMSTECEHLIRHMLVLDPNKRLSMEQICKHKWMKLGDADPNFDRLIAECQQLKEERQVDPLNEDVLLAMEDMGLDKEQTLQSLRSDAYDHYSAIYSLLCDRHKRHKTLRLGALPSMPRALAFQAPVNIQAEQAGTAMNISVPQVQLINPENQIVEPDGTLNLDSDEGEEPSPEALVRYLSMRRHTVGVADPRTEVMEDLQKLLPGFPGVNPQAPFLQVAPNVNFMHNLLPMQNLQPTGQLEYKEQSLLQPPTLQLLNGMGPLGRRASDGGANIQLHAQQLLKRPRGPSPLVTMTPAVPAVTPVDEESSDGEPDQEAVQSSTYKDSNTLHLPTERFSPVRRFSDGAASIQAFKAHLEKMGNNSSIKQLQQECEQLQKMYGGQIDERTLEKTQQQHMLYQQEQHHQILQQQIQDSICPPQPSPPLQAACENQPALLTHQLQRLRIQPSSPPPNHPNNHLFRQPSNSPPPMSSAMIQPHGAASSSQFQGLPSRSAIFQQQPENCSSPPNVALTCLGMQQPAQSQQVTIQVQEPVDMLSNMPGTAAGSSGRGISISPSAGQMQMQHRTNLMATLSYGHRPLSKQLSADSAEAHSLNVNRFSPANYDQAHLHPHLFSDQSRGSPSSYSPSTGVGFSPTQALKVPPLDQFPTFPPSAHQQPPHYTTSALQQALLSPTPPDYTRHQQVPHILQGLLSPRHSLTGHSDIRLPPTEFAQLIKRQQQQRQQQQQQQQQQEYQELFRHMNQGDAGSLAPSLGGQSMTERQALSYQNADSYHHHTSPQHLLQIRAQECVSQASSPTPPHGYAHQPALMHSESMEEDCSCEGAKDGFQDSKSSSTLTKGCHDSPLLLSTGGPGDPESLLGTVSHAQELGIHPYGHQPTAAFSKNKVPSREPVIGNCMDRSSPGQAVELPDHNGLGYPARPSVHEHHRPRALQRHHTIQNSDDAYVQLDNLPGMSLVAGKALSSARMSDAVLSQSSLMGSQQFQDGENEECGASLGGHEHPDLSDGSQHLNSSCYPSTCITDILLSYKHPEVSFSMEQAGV
Chain of UniProt P27361 (whole entry, looked up): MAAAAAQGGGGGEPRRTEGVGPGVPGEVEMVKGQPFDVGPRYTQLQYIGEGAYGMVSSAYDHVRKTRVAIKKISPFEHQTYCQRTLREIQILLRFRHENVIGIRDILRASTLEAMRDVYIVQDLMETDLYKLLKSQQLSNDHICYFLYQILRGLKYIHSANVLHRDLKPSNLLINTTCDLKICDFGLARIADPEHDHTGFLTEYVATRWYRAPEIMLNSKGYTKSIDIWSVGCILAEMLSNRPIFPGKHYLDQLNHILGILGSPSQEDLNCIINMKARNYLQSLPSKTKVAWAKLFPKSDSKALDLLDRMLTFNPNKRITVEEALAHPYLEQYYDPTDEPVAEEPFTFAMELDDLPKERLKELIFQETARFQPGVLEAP
Chain of UniProt P23458 (whole entry, looked up): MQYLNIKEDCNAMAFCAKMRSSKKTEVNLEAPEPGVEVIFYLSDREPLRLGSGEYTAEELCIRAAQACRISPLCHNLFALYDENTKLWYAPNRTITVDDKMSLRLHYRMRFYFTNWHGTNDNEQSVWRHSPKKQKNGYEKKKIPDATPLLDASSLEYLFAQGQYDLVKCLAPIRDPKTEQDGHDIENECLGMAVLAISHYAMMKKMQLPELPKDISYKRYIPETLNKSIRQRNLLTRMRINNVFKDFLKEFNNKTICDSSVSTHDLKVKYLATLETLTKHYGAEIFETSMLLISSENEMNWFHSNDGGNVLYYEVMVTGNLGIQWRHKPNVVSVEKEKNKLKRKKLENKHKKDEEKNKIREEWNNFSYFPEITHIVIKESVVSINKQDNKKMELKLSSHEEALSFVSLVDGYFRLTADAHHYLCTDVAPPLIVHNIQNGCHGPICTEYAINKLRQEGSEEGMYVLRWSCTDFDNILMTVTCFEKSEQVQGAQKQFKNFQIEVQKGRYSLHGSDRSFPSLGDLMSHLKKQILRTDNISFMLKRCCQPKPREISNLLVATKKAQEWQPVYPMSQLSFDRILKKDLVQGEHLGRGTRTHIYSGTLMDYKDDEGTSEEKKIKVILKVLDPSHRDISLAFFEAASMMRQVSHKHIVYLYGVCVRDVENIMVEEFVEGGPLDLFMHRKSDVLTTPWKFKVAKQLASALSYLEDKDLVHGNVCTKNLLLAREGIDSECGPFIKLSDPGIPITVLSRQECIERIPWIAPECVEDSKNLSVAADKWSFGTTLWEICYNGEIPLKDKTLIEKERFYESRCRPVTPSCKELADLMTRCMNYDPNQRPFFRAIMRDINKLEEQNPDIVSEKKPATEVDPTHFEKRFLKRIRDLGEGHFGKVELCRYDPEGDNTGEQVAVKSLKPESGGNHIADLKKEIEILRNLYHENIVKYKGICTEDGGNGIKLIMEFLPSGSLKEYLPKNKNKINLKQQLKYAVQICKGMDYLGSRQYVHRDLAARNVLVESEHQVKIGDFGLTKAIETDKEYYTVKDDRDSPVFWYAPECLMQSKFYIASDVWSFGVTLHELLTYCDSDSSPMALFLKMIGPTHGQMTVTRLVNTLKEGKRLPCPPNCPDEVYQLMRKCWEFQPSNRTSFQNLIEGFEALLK

Study 1
Species: human
Medium: microsomes or S9
Concentration: 2 µM
Time: 0.5 h
Quantity: remaining compound
CC(CC(=O)c1ccccc1)n1nnc(-c2ccccc2)n1 (stereo not shown): 1.26%
O=C(O)CCC(=O)N1N=C(c2nn(-c3ccccc3)cc2-c2ccccc2)CC1c1cccs1 (stereo not shown): 75.7%
COc1ccc(C2c3cccn3-c3sc4c(c3CN2C(=O)NCc2ccc(F)cc2)CCCC4)cc1 (stereo not shown): 3.82%
CN(C)C1CCN(c2ncnn3c(Br)ccc23)CC1: 94.5%
COc1ccc(CCN2CCC(CNS(=O)(=O)c3ccc(-c4ccc(=O)[nH]n4)s3)CC2)cc1: 62.1%
Cc1cnc(NC2CC(C)OC(C)C2)nc1NC1CC(C)OC(C)C1 (stereo not shown): > 100%
COCCOc1cc(=O)n2c(c1C(=O)NCc1ccc(OC)cc1)CCOCC2: 92.8%
COc1ccc([C@H]2COc3c(ccc(O)c3OC)C2)c(OC)c1O: > 99%
CCNc1nc(NC(C)(C)C)nc(Oc2ccc(=O)n(CC)n2)n1: 59.2%

Study 2
Target: Macrophage colony-stimulating factor 1 receptor (CSF1R, Homo sapiens, UniProt P07333)
Chain of UniProt P07333 (whole entry, looked up): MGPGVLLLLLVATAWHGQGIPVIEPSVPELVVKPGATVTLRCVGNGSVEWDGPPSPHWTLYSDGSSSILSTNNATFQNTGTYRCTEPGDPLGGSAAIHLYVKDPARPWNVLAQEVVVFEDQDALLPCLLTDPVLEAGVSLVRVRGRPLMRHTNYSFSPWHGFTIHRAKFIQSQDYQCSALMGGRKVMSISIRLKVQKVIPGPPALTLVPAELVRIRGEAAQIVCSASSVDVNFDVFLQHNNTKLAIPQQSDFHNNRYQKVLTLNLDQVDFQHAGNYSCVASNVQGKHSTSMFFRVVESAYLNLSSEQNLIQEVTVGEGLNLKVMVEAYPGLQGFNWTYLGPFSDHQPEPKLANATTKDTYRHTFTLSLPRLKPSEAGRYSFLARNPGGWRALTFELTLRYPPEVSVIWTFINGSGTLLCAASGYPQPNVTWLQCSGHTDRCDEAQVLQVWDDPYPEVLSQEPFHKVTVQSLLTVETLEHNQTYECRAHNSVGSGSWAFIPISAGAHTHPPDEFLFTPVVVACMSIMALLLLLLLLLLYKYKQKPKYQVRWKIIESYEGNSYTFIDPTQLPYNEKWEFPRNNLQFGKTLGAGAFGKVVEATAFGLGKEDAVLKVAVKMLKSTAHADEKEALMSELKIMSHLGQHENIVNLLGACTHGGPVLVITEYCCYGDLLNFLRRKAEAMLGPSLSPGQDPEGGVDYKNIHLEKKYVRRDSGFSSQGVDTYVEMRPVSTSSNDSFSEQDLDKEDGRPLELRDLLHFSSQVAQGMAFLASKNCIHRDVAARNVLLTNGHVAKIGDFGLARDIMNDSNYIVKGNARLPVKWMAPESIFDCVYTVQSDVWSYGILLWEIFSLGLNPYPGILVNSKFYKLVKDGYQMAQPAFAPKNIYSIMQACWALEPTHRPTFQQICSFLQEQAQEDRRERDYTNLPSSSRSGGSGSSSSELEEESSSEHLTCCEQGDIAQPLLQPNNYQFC
Read-out: enzyme activity
Action: inhibitor
Concentration: 0.5 µM
Reference: control
Quantity: remaining activity
Cc1cc2ncc(-c3ccccc3)nc2cc1C: 82.1%
Nc1cccc(-c2cc3c(Oc4cccc(O)c4)ncnc3[nH]2)c1: 13.6%
O=c1cc(-c2cccc3c2Sc2ccccc2S3)oc(N2CCOCC2)c1: 91.9%
CCN(CC)CCNC(=O)c1c(C)[nH]c(/C=C2\C(=O)Nc3ccc(F)cc32)c1C: 7.28%
C[C@@H]1CCN(C(=O)CC#N)C[C@@H]1N(C)c1ncnc2[nH]ccc12: 101%
Cc1nc2cc3nc(-c4cccs4)cnc3cc2n1C: 63.5%
CN(C)C[C@H]1CCn2c(c(C3=C(c4cn(C)c5ccccc45)C(=O)NC3=O)c3ccccc32)C1: 98.1%
CCOc1nc(NC(=O)Cc2cc(OC)ccc2OC)cc(N)c1C#N: 99.2%
Cn1nc2c3c(cccc31)C(=O)c1ccccc1-2: 97%
COc1cc2c(cc1OC)-c1[nH]nc(Nc3cccc(F)c3)c1C2: 20%

Study 3
Cell line: mouse MPNST tumor cells
Method: high-content immunofluorescence imaging
Item: nuclear SOX9
Concentration: 10 µM
Time: 12 h
Setting: mean of 2 replicates
Reference: DMSO control
Direction: higher = more nuclear SOX9
Quantity: nuclear SOX9 intensity
Cn1c(CNc2cccc(C(=O)NCc3ccccc3C(F)(F)F)c2)nnc1-c1ccncc1: 121 % of DMSO
CCc1cc(C(N)=S)ccn1: 106 % of DMSO
CCN(CC)CCOC(=O)C(Cc1cccc2ccccc12)CC1CCCO1 (stereo not shown): 113 % of DMSO
CCN(CC)S(=O)(=O)c1ccc(Cl)c(C(=O)Nc2ccc3nc(C)sc3c2)c1: 100 % of DMSO
CNCCCC1(c2ccccc2)OC(C)(C)c2ccccc21 (stereo not shown): 132 % of DMSO
COc1ccc(Oc2c(Cl)cnn(C3c4ccccc4-c4ccccc43)c2=O)cc1: 107 % of DMSO
Cc1cn([C@H]2C=C[C@@H](CO)O2)c(=O)[nH]c1=O: 120 % of DMSO and 113 % of DMSO

Study 4
SMILES: O=C(N1CCS(=O)(=O)CC1)N1C[C@H](c2ccc(OC(F)(F)F)cc2)C[C@H](c2nc(C3CC3)no2)C1
Read-out: cell-free assay
Method: competition with immobilised ligand
Concentration: 1 µM
Quantity: remaining binding
EGFR (Homo sapiens, UniProt P00533, del746-750): 92%
PAK1 (Homo sapiens, UniProt Q13153): 100%
STK24 (Homo sapiens, UniProt Q9Y6E0): 97%
FLT3 (Homo sapiens, UniProt P36888): 96%
CDK5 (Homo sapiens, UniProt Q00535): 83%
KIT (Homo sapiens, UniProt P10721, D816V): 100%
MAPK3 (Homo sapiens, UniProt P27361): 94%
FLT3 (Homo sapiens, UniProt P36888, D835V): 100%
PIK3CA (Homo sapiens, UniProt P42336, E545A): 100%
FLT3 (Homo sapiens, UniProt P36888, ITD): 100%
Tyrosine-protein kinase JAK1, JH1 (JAK1, Homo sapiens, UniProt P23458): 88%
SIK3 (Homo sapiens, UniProt Q9Y2K2): 77%
Cyclin-dependent kinase 4, with cyclin D1 (CDK4, Homo sapiens, UniProt P11802): 96%
Aurora kinase B (AURKB, Homo sapiens, UniProt Q96GD4): 100%
